# Measurements of several laboratories.
# Parts stem from different laboratories: compare values within a part only. Values joined by “and” are separate records of one study, mostly repeats; a detail may differ.
# Chain of UniProt Q8TDR2 (whole entry, looked up): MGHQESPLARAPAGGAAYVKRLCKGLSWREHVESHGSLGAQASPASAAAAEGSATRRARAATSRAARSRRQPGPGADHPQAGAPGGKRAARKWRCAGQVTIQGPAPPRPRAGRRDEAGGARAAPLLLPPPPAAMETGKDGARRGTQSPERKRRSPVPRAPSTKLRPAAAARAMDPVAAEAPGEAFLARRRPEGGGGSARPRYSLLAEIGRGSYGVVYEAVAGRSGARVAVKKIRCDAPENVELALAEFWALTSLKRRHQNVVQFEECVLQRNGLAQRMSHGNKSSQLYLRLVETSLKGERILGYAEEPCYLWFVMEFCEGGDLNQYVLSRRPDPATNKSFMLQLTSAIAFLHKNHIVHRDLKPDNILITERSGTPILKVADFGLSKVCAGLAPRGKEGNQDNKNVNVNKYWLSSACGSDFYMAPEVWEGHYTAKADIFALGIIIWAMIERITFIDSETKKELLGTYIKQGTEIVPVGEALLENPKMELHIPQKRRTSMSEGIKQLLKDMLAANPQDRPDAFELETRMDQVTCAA
# Chain of UniProt O43318 (whole entry, looked up): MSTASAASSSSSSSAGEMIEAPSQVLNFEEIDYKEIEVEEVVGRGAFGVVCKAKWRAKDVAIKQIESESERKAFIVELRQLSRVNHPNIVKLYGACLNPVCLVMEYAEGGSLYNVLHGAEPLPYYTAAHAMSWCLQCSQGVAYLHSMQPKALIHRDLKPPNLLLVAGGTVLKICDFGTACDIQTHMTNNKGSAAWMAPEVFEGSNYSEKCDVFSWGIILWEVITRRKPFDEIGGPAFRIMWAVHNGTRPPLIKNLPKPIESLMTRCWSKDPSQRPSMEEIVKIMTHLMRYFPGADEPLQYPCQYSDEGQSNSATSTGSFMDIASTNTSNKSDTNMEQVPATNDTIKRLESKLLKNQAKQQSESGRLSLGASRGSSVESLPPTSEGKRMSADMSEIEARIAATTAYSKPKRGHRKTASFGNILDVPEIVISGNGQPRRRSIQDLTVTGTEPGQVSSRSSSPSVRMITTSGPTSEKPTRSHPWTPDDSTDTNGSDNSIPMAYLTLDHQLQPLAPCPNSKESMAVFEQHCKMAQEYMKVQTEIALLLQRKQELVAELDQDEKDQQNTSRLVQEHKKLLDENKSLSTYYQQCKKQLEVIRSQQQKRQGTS
# Chain of UniProt P42336 (whole entry, unmodified, looked up): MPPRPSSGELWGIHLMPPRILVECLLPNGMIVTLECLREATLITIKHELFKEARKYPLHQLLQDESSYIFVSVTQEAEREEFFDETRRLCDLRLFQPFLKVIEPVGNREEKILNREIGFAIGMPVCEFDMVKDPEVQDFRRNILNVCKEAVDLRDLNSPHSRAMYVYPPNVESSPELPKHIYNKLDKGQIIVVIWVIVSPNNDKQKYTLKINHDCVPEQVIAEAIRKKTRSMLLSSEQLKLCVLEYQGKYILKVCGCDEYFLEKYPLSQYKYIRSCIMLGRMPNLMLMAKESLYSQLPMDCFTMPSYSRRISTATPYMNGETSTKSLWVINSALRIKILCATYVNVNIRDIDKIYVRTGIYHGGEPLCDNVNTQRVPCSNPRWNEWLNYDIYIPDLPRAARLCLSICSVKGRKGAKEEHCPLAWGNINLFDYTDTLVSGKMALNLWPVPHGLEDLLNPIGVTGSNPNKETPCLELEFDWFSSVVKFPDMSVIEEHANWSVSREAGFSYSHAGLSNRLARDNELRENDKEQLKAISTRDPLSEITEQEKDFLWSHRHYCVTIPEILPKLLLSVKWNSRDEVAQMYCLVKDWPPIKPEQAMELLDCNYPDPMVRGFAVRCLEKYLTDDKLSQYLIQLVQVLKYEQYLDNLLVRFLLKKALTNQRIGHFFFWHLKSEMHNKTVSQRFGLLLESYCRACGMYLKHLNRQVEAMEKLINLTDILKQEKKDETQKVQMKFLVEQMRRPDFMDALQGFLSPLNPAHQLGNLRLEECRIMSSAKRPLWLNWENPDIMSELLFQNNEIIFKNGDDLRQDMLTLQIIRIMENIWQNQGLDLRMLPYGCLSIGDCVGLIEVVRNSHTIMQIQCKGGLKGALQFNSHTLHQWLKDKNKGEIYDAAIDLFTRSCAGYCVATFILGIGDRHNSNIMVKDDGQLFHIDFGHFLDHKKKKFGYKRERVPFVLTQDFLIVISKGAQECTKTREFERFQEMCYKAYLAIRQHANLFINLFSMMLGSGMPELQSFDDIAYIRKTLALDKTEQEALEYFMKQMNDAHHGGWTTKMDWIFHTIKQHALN
# Chain of UniProt Q99755 (whole entry, looked up): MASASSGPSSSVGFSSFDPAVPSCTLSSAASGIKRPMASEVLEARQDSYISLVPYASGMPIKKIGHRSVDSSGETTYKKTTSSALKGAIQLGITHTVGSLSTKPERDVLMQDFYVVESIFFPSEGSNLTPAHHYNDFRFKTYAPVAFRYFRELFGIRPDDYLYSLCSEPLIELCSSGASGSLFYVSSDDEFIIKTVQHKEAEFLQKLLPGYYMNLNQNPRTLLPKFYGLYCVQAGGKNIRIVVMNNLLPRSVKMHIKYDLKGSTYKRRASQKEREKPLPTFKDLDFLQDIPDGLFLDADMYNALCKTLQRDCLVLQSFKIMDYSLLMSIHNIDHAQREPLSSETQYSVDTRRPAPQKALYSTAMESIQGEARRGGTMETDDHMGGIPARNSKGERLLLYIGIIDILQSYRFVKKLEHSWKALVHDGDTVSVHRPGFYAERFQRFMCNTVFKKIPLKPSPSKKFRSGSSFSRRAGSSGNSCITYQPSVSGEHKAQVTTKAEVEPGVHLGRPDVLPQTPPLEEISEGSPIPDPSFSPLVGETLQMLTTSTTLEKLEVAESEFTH

# Study 1
# SMILES: O=C1CCc2cc(Nc3cc(OC4CCOCC4)c([N+](=O)[O-])cc3Cl)ccc2N1
# Observed: cell-free assay
# Method: competition with immobilised ligand
# Tested at: 1 µM
target,remaining binding [%]
"PIP5K1A (Homo sapiens, UniProt Q99755)",100
"MAP3K7 (Homo sapiens, UniProt O43318)",95
"PIK3CA (Homo sapiens, UniProt P42336, H1047L)",78
"STK35 (Homo sapiens, UniProt Q8TDR2)",100

# Study 2
# Target: RING finger protein unkempt homolog, zinc fingers 1-6, GST-SBP tag (UNK, Homo sapiens, UniProt Q9C0B0, residues 30-357)
# Method: RNA Bind-n-Seq
# Molecule type: RNA
# Medium: in vitro
# Tested at: not given
# Notes: RNA with constant flanks, human and mouse sites, ends assumed
# Reference: input RNA pool
# Reading: higher = stronger binding
# Constant ends, left off below: GGGAGUUCUACAGUCCGACGAUC … CAACAGAGGAUUGAGCAUCA
# Target sequence (chain): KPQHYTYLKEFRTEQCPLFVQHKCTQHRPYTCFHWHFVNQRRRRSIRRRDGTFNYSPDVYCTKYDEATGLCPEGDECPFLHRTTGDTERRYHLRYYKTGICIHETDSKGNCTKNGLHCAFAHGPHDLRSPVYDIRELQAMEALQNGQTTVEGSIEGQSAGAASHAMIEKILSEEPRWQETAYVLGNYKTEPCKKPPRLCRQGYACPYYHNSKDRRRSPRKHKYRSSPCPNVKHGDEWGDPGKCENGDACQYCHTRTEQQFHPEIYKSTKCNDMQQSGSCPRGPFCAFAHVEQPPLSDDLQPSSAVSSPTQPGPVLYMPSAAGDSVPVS
Sequence,bound/input enrichment [ratio]
AGGCAGGGCAGUCGCCUGGUGGAGAUCUGCAAGGUGGCGGUAGCCACUCUGAGCCAUGAGCAGAUGAUCGACCUCCUGAGAACAUCUGUCACGGUGAAGGUUGUCAUCAUUCCCCCGCAU,0.117
CUUACCAAGCACUUGCUGAAGACAGUGUGUACCGAUAUCACUAACCUCAUGUUCAACUUCCUAGCCUCAGAUUUCCUCAUGGCAGUGGAGGAGCCUGCAGCCAUUACAAGUGAUAUAAGA,0.312
CAUCUUUCUUGAUCAACAUCUUUUCUUGCCUCUGUCCCCUUCUCUCAUCUCUUAGCUCCCCUCCAACCUGGGGGGCAGUGGUGUGGAGAAGCCACAGGCCUGAGAUUUCAUCUGCUCUCC,0.247
GUGCUGGCUGUGUCGAAAGUGGAGGAGCUGACGAGGCAGCUGGAGAUGCUGAAGAACGGCAGGAUCGAUGGCCACCACGACAACCAGUCGGCCGUGGCUGAGCUGGACCGCCUUUACAAG,0.0903
GAUCAAGCUAGAUCAGCAUUCUCUAACUUGUUUGGUGGAGAACCAUUGUCAUAUACCCGGUUCAGCCUGGCUCGGCAAGUAGAUGGCGAUAACAGUCAUGUGGAGAUGAAACUUGCUGUA,0.153
UUGAAAGCUGAGAAAGACAAUGCUGAGAUAAGAGUCCACACAGUUGAGGAUUAUCAGGCAAUUGUUGAUGCUGAGUGGAACAUUCUCUAUGACAAGUUAGAGAAGAUCCAUCAUUCUGGA,0.109
GUGAAGAUGAAGAUGAAAUACUACAUCGAGUACAUGGAGAGCACUCGAGAUGAUAGUCCCCUUUACAUCUUUGACAGCAGCUAUGGUGAACACCCUAAAAGAAGGAAACUUUUGGAAGAC,0.321
UAGUAUGUGAAUUUUAUACAAUUGGAAGUCAUCCUCCCCUGGCUCCCACUUCUGUCUUCAAGUUUUGCCUGUUUCCACUUUUUCUCCCAAACCAUUUCUGCUACAGUGUUCCCUGAACCG,2.8

# Study 3
# Species: human
# Medium: microsomes or S9
# Tested at: 2 µM
# Time: 0.5 h
SMILES,remaining compound [%]
COc1cc(=O)n(C)cc1C(=O)N1CCc2c(cnc3cc(C)nn23)C1,> 99
OCCCc1cn(-c2ccccc2)c2ccccc12,13.7
Cc1ccc(Nc2n[nH]c(N)c2S(=O)(=O)c2ccccc2)cc1,55.4

# Study 4
# Target: Homeodomain-interacting protein kinase 3 (HIPK3, Homo sapiens, UniProt Q9H422)
# Chain of UniProt Q9H422 (whole entry, looked up): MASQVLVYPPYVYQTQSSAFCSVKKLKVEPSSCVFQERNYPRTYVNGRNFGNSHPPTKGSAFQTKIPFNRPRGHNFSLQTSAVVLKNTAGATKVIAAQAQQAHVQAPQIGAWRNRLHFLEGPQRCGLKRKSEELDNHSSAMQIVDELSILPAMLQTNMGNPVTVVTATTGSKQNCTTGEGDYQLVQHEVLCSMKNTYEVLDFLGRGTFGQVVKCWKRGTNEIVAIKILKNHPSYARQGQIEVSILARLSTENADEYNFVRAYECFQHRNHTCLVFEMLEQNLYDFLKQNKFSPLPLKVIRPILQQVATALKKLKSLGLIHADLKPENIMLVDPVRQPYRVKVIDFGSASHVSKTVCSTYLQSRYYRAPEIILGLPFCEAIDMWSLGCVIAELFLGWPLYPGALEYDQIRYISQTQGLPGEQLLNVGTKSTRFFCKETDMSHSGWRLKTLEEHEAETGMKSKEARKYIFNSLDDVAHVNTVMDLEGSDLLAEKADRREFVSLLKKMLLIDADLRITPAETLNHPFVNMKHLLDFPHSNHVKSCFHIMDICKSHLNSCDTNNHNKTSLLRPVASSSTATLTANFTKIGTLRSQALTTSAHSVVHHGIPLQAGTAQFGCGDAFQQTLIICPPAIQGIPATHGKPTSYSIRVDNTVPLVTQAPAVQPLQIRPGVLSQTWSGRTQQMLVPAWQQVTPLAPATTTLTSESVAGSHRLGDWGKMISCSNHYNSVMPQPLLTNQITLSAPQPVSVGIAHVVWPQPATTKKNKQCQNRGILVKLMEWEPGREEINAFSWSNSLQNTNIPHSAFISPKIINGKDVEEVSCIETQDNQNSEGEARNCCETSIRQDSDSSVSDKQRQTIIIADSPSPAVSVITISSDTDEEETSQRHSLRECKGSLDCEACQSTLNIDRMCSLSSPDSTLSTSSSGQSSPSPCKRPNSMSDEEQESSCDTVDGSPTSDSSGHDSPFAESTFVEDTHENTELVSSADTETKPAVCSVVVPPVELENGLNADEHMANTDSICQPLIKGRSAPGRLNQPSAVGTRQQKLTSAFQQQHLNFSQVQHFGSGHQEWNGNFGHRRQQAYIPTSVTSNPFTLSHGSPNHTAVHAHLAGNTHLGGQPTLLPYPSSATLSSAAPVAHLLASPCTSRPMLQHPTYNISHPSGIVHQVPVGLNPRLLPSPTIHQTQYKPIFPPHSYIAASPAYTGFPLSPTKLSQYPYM
# Observed: enzyme activity
# Mode: inhibitor
# Tested at: 0.5 µM
# Reference: control
Structure (SMILES),remaining activity [%]
O=C(CCCc1ccc(-c2ccccc2F)cc1)Nc1ccc(O)cc1,99.4
Cn1c2ccccc2c2c3c(c4c5ccccc5n(CCC#N)c4c21)CNC3=O,29.8
COc1ccc(C(=O)Nc2sc3c(c2C(N)=O)CCCC3)cc1OC,105
O=C1NC(=O)C(c2cn(CCCn3ccnc3)c3ccccc23)=C1Nc1ccccc1,102
COc1ccc(CNC(=O)Nc2ncc([N+](=O)[O-])s2)cc1,91.9
CC(C)[C@H](CO)Nc1nc(Nc2cc(N)cc(Cl)c2)c2ncn(C(C)C)c2n1,99.4
N#CC(C#N)=C(N)/C(C#N)=C/c1ccc(O)cc1,102
OCC(O)CCON=C1C(c2c(O)[nH]c3ccccc23)=Nc2ccccc21 (stereo not drawn),66.2
COc1cc2ncnc(Nc3ccc(Oc4ccccc4)cc3)c2cc1OC,103
CCOC(=O)c1c(C)[nH]c(/C=C2\C(=O)Nc3ccccc32)c1C,94.5
O=C1NC(=O)C(c2cn(CCCO)c3ncccc23)=C1c1cnccn1,89.2
COc1ccc(OC)c2c(=S)c3ccccc3[nH]c12,101
Oc1ccc(-c2nc(-c3ccncc3)c(-c3ccc(F)cc3)[nH]2)cc1,98.3

# Study 5
# Compound: c1ccc(Oc2ccc(Nc3c4c(nc5ccccc35)CCC4)cc2)cc1
# Method: resazurin
cell line,setting,cytotoxicity
HepG2,"6.66 µM, 48 h",8% and 13%
J774.1,"16.66 µM, 64 h",31% and 20%
J774.1,0.066 µM,-6% and -8%
HepG2,"1.66 µM, 48 h",3% and 4%

# Further values, each from its own experiment
Compound,test system,setting,measurement,result
CC(C)n1cnc(-c2ccc(F)cc2)c1-c1ncc(C(=O)Nc2ccc(N3CCN(C)CC3)cc2)[nH]1,"human, idiopathic pulmonary fibrosis","30 mg twice daily, trial, with standard of care",treatment-related AEs,62.5%

# For quick reference, copied from above (study 4):
Structure (SMILES),remaining activity [%]
COc1ccc(OC)c2c(=S)c3ccccc3[nH]c12,101
OCC(O)CCON=C1C(c2c(O)[nH]c3ccccc23)=Nc2ccccc21 (stereo not drawn),66.2
N#CC(C#N)=C(N)/C(C#N)=C/c1ccc(O)cc1,102
Cn1c2ccccc2c2c3c(c4c5ccccc5n(CCC#N)c4c21)CNC3=O,29.8
